Published values pooled from the literature.
Every numbered part comes from another study and shows a few of its results, in no order. “And” joins repeats or separate records; there may be more than shown.

Set 1
SMILES: CCN1/C(=C/C=C2\CCCC(/C=C/C3=[N+](CC)c4ccccc4C3(C)C)=C2NCCCCCCCCN2CCC(Nc3nc4ccccc4n3Cc3ccc(F)cc3)CC2)C(C)(C)c2ccccc21
Cell line: U-87 MG
Concentration: concentration not given
Relative to: DMSO
The “log2 fold change” was 4.65 (measured: PI3 mRNA).
For measured: CSF1 mRNA: “log2 fold change” read -3.07.
For measured: UTRN mRNA: “log2 fold change” read -1.39.
It gave -1.59 for “log2 fold change” (measured: TFAP4 mRNA).
It gave -2.04 for “log2 fold change” (measured: CGB8 mRNA).
The “log2 fold change” was 1.91 (measured: CCDC171 mRNA).
measured: GALNT5 mRNA — “log2 fold change”: -2.11.
It gave -3.22 for “log2 fold change” (measured: SPC24 mRNA).
measured: SLAMF8 mRNA — “log2 fold change”: -1.69.
For measured: C11orf96 mRNA: “log2 fold change” read 2.34.
It gave 0.946 for “log2 fold change” (measured: ALG2 mRNA).
For measured: TRIM6 mRNA: “log2 fold change” read -1.07.
It gave -2.14 for “log2 fold change” (measured: S100A3 mRNA).
It gave -1.68 for “log2 fold change” (measured: HSD3B7 mRNA).
For measured: SHROOM1 mRNA: “log2 fold change” read -1.03.
The “log2 fold change” was 4.36 (measured: PTGS2 mRNA).

Set 2
Compound: COc1cc(C(=O)OCCCN2CCCN(CCCOC(=O)c3cc(OC)c(OC)c(OCc4ccc([N+](=O)[O-])cc4)c3)CC2)cc(OC)c1OC
Method: von Frey test
For mouse, CFA inflammatory pain; intraplantar, 10 µg, 5 h post-dose, day 3 after CFA: “paw withdrawal threshold” read 0.75 g and 1.3 g and 0.51 g and 0.98 g.
For mouse, CFA inflammatory pain; subcutaneous, 10 mg/kg, 1 h post-dose, third injection, day 5: “paw withdrawal threshold” read 0.29 g and 0.23 g and 0.4 g.
It gave 0.98 g and 0.51 g and 0.27 g and 0.36 g for “paw withdrawal threshold” (mechanical pain; mouse, STZ diabetic neuropathy; intravenous, 30 mg/kg, 1 h post-dose, first injection, day 8).
mouse, CFA inflammatory pain; intravenous, dose not given, 3 h post-dose, third injection, day 5 — “paw withdrawal threshold”: 0.98 g and 0.65 g and 0.75 g and 1.3 g.
The “paw withdrawal threshold” was 0.32 g and 0.23 g and 0.4 g (mouse, CFA inflammatory pain; subcutaneous, 10 mg/kg, 24 h post-dose, third injection, day 5).
For mechanical pain; mouse, STZ diabetic neuropathy; intravenous, 30 mg/kg, 3 h post-dose, first injection, day 8: “paw withdrawal threshold” read 0.1 g and 0.44 g and 0.51 g and 0.23 g and 0.32 g.
It gave 0.23 g and 0.51 g and 0.65 g and 0.44 g and 0.4 g for “paw withdrawal threshold” (mouse, CFA inflammatory pain; subcutaneous, 10 mg/kg, 5 h post-dose, third injection, day 5).

Set 3
Structure (SMILES): C[C@@H]1CN(c2ccc(-c3cc(C(=O)NCCOCCOCCOCCOCCOCCOCCNC(=O)/C=C/c4[nH]cc(C(=O)N[C@@H](CC(N)=O)c5ccc(F)c(Cl)c5)c4-c4ccc(Cl)cc4F)ccc3F)cc2NC(=O)c2ccc(F)cc2C(F)(F)F)C[C@H](C)N1C
Read-out: thermal unfolding
Method: differential scanning fluorimetry
Concentration: 5.5 µM
Reading: higher = more unfolded
WDR5: WD repeat-containing protein 5 (WDR5, Homo sapiens, UniProt P61964)
DCAF1: DDB1- and CUL4-associated factor 1 (DCAF1, Homo sapiens, UniProt Q9Y4B6)
Chain of UniProt Q9Y4B6 (whole entry, looked up): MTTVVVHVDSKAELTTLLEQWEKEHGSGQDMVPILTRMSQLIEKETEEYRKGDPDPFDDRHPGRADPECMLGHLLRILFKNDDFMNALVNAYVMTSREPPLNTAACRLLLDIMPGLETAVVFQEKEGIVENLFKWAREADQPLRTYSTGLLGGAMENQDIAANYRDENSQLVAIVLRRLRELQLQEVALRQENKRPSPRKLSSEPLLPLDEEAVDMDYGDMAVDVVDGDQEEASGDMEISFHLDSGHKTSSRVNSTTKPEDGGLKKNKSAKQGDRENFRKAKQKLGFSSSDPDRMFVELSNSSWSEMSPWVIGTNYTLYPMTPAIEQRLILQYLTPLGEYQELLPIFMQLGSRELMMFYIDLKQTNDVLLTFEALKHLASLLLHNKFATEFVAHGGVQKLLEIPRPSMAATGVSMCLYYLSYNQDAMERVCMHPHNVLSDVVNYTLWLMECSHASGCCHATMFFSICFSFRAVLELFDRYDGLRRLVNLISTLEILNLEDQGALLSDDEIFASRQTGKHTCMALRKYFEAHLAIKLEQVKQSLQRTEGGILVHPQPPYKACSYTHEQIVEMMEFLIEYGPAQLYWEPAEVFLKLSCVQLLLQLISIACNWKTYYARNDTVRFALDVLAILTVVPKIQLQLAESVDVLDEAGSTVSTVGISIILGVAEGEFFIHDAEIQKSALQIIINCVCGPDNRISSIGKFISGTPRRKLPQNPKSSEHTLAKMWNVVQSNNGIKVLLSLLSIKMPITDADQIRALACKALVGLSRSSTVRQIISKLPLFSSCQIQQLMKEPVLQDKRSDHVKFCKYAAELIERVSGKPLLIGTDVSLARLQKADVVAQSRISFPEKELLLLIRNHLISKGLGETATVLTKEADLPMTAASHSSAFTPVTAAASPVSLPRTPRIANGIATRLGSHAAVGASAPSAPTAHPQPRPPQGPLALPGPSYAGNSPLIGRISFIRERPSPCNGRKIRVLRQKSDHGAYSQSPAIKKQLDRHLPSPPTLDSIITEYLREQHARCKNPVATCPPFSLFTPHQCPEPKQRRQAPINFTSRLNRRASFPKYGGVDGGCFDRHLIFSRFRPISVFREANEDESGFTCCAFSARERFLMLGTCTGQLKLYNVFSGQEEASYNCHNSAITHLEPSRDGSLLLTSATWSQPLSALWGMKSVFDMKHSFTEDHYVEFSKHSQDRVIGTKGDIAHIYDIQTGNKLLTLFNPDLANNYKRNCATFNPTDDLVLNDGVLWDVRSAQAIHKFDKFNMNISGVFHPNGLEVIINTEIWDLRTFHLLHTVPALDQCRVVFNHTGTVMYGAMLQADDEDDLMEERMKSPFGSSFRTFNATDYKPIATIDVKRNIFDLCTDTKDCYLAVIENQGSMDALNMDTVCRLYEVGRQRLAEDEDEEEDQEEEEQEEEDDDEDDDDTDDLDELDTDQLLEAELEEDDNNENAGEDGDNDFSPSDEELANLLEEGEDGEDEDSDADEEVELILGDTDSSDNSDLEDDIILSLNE
It gave 39900 a.u. for “SYPRO Orange fluorescence” (WDR5; 73.01 °C).
The “SYPRO Orange fluorescence” was 40100 a.u. (DCAF1; 79.81 °C).
DCAF1; 85.01 °C — “SYPRO Orange fluorescence”: 35900 a.u.
The “SYPRO Orange fluorescence” was 36500 a.u. (WDR5; 72.21 °C).
The “SYPRO Orange fluorescence” was 56200 a.u. (WDR5; 89.21 °C).
WDR5; 46.4 °C — “SYPRO Orange fluorescence”: 14900 a.u.
The “SYPRO Orange fluorescence” was 11600 a.u. (DCAF1; 40.2 °C).
WDR5; 91.81 °C — “SYPRO Orange fluorescence”: 52100 a.u.
The “SYPRO Orange fluorescence” was 14200 a.u. (WDR5; 40.6 °C).
For WDR5; 57.81 °C: “SYPRO Orange fluorescence” read 15800 a.u.
It gave 18400 a.u. for “SYPRO Orange fluorescence” (WDR5; 66.61 °C).

Set 4
SMILES: Cc1ccc(O)c(C)c1-c1cnc2[nH]c(-c3cnc(N4CCC(CN5CCN(c6c(F)cc(NC7CCC(=O)NC7=O)cc6F)CC5)CC4)nc3)cc2c1C#N (racemic)
Cell line: HCC1569
Method: in-cell western
Measured: CDK1 phospho-Thr14
The “pCDK1 (Thr14) level” was 22.3% and 12.3% (4.12 nM).
For 12.35 nM: “pCDK1 (Thr14) level” read 35.2% and 40.6%.
37.04 nM — “pCDK1 (Thr14) level”: 34.3% and 38.9%.
The “pCDK1 (Thr14) level” was 81.2% and 84.4% (333.33 nM).
1000 nM — “pCDK1 (Thr14) level”: 102%.
111.11 nM — “pCDK1 (Thr14) level”: 57.1% and 55.8%.
It gave 5.8% and 6% for “pCDK1 (Thr14) level” (0.152 nM).

Excerpt of the above (set 1):
measured: GALNT5 mRNA — “log2 fold change”: -2.11.
It gave -3.22 for “log2 fold change” (measured: SPC24 mRNA).
measured: SLAMF8 mRNA — “log2 fold change”: -1.69.
